Experimental data of several laboratories.
Values joined by “and” are separate records of one study, mostly repeats; a detail may differ. ± gives the spread as reported.

SMILES | assay | test system | conditions | scale | quantity | value
COc1ncc(-c2nc3c(n2C(C)C)[C@H](c2ccc(Cl)cc2)N(c2cc(Cl)cn(C)c2=O)C3=O)c(OC)n1 |  | human patients, plasma | oral, 45 mg, cycle 1 day 1, low-dose |  | median Tmax | 2 h
CC(=O)Nc1c(F)ccc(NS(=O)(=O)c2cccc(Cl)c2O)c1F | colloidal aggregate formation, dynamic light scattering | 50 mM potassium phosphate buffer | 200 µM, pH 7.0, 1% DMSO | higher = more aggregation | DLS scattered light intensity | 739000 counts/s
CO/N=C(\C(=O)N[C@@H]1C(=O)N2C(C(=O)[O-])=C(C[N+]3(C)CCCC3)CS[C@H]12)c1csc(N)n1 |  | human whole blood | concentration not given, 8 h, 4 °C |  | deviation from nominal concentration | 8%
NCCONC(=O)[C@@H]1CC[C@@H]2CN1C(=O)N2OS(=O)(=O)O | measured: leading to permanent discontinuation | healthy Chinese men | intravenous, 2 g, treatment-related |  | adverse event incidence | 0%
N#Cc1ccc2c(c1)[C@H]1CCCN(C(=O)c3ccc4[nH]cnc4c3)[C@H]1C2 |  | human, female | 10 mg, end of trial |  | DHEA-S level | 2.2 µmol/L
COc1ccc2c(c1)CN(C(=O)CCN1CCC(Cc3ccccc3)CC1)CC[S@@+]2[O-] | telemetry | conscious male beagle dogs | intravenous, NG, 4 h |  | PQ interval | 93 ± 11 ms
Cc1cc(-c2nccc3c2ccn3CC(=O)Nc2ccc(-c3cnccn3)cn2)ccn1 |  | human | 20 mg once daily, multiple ascending dose |  | subjects with limb injury | 11.1%
CNC(=O)c1ccc(-c2cnc3ncc(Cc4ccc5ncccc5c4)n3n2)cc1F | measured: Diarrhea | gastric cancer patients | oral, 600 mg twice daily, expansion cohort, grade 3-4 |  | patients with adverse event | 0%
C[C@H](CS)C(=O)N1CCC[C@H]1C(=O)O |  | male Hartley guinea pig, anaesthetized | intravenous, 30 mg/kg, baseline before infusion |  | QTc interval | 359 ± 0.3 ms
COc1cccc(OC)c1-c1cc(C(=O)NC2(C(=O)O)C3CC4CC(C3)CC2C4)nn1-c1ccc(C(=O)N(C)CCCN(C)CCCN(C)C(=O)CN2CCN(CC(=O)[O-])CCN(CC(=O)[O-])CCN(CC(=O)[O-])CC2)cc1C(C)C.[177Lu+3] (centres unmarked) |  | mouse, HT-29 xenograft, brain | 24 h post injection |  | tissue uptake | 0.055 %ID/g
Cn1ncc(S(=O)(=O)NC(c2cccc(Cl)c2)c2cccc(Cl)c2)c1C(=O)O | colloidal aggregate formation, dynamic light scattering | 50 mM potassium phosphate buffer | 200 µM, pH 7.0, 1% DMSO | higher = more aggregation | DLS scattered light intensity | 229000 counts/s
CNCc1ccc(-c2[nH]c3cc(F)cc4c3c2CCNC4=O)cc1 |  | human patients | oral, 600 mg twice daily, grade 3 |  | incidence of malignant neoplasm progression | 0%
CC(C)(C(=O)N1CCOc2c(C#N)cncc2C1)C(F)F | measured: Constipation | human | oral, 40 mg, CSF pharmacokinetic cohort |  | subjects with adverse event | 16.7%
Cc1cc(F)c(NS(=O)(=O)c2cc(Cl)cc(Cl)c2O)cc1[N+](=O)[O-] | colloidal aggregate formation, dynamic light scattering | 50 mM potassium phosphate buffer | 200 µM, pH 7.0, 1% DMSO | higher = more aggregation | DLS scattered light intensity | 1.56e+07 counts/s
CNC(=O)c1ccc(-c2cnc3ncc(Cc4ccc5ncccc5c4)n3n2)cc1F |  | Japanese patients | oral, 400 mg, any grade |  | Lipase increased dose reduction/interruption | 2%
CNCCOC12CC3(C)CC(C)(CC(Cn4ncc(-c5ccc(N6CCc7cccc(C(=O)Nc8nc9ccccc9s8)c7C6)nc5C(=O)O)c4C)(C3)C1)C2 |  | beagle dog, male, anaesthetised | intravenous bolus, 0.03 mg/kg, 5 min | reference: baseline | PR interval change | -8 ms
C=CC(=O)N1CCC(c2ccc(C(N)=O)c(-c3ccc(Oc4ccccc4)cc3)n2)CC1 |  | relapsed/refractory mantle cell lymphoma patients | oral, 100 mg twice daily, part, CTCAE v4.03 |  | serious treatment-related AE rate | 0%
C[C@@H]1COCCN1c1cc(C2([S@](C)(=N)=O)CC2)nc(-c2cc[nH]c3nccc2-3)n1 |  | Japanese advanced solid tumour patients | oral, 160 mg twice daily, CTCAE grade ≥3 |  | Pyrexia incidence | 0%
CC(C)n1c(Nc2cccnc2)nc2cnc(Nc3ccc(N4CCN(C)CC4)cc3)nc21 | measured: investigations (SOC) | healthy male subjects | oral, 100 mg, study, together with: itraconazole |  | subjects with adverse event | 21.4%

SMILES | assay | test system | conditions | scale | quantity | value
CNC(=O)c1cccc(-c2ccc([C@@H](O)[C@H]3O[C@H](CO)[C@@H](O)[C@H](O)[C@@H]3O)c(C)c2)c1 |  | Sprague-Dawley rat, male, plasma | oral, 10 mg/kg |  | terminal half-life | 3.56 h and 3.81 h and 3.22 h
CSc1nc2nnnc(O)c2s1 | haemolysis | sheep erythrocytes | 1 h, pH 7.5 |  | HC50 | > 128 µg/mL
Oc1ccc(/C=C/c2cc(O)cc(O)c2)cc1 |  | male Wistar rats, plasma | oral, 10 mg/kg |  | AUC(0-24 h) | 523 ± 84.2 ng·h/mL
O=C(Nc1nc2cccc(-c3ccc(CN4CCS(=O)(=O)CC4)cc3)n2n1)C1CC1 | measured: ear and labyrinth disorders | human rheumatoid arthritis patients | oral, 30 mg once daily, 4 weeks, regardless of relatedness |  | treatment-emergent adverse events | 0%
CCOc1ccc2nc(NC(=O)c3ccc4ncsc4c3)sc2c1 | haemolysis | sheep erythrocytes | 1 h, pH 7.5 |  | HC50 | > 128 µg/mL
COc1ccc([C@@H](O)c2cc(-c3ncnc4cc(N5CCOCC5)ccc34)c(F)cc2Cl)nn1 |  | human, plasma | oral, 250 mg twice daily, single dose, geometric mean |  | AUC(0-12) | 7550 ng·h/mL
CCn1ncc2c1-c1cnc(N)c(c1)O[C@H](C)c1cc(F)ccc1-c1nn(C)nc1C2 |  | female athymic nude mice, sample B PDX | oral, 1 mg/kg twice daily for 21 days, 12 h |  | unbound plasma trough concentration | 12 ± 2 nM
COc1ccc(F)cc1C(=O)NCc1ccc(-c2nn([C@@H](C)C(F)(F)F)c(N)c2C(N)=O)cc1 |  | healthy men, feces | intravenous, 22 µg | reference: dose | unchanged drug excreted | 14.4%
COCCOc1cnc2ccn([C@H](C)c3nnc4c(F)cc(-c5cnn(C)c5)cn34)c(=O)c2c1 |  | patients, plasma | oral, 100 mg once daily, day 28 24 h postdose |  | Ctrough | 120 ng/mL
C[C@@H]1CN(c2c(F)c(N)c3c(=O)c(C(=O)O)cn(C4CC4)c3c2F)C[C@H](C)N1 |  | male Hartley guinea pig, anaesthetized | intravenous infusion, 30 mg/kg, 10 min infusion, post-infusion |  | QTc interval | 380 ± 1.5 ms
CCOc1c([C@H](C)n2nc(C)c3c(N)ncnc32)cc(Cl)c(F)c1[C@@H]1CNC(=O)C1 | ECG | previously treated B-cell malignancy patients | oral, 20 mg once daily, baseline QTcF ≤450 ms |  | observations QTcF >450 ≤480 ms | 4.2%
O=C(NCC1(C(=O)O)CCC1)Nc1cc(-c2ccccc2)on1 | colloidal aggregate formation, dynamic light scattering | 50 mM potassium phosphate buffer | 200 µM, pH 7.0, 1% DMSO | higher = more aggregation | DLS scattered light intensity | 1.29e+06 counts/s
CC[C@@]1(O)C(=O)OCc2c1cc1n(c2=O)Cc2c-1nc1cc(F)c(C)c3c1c2[C@@H](N)CC3 | measured: free payload | BALB/c nude mice, NCI-H1975/C797S xenograft, tumour | intravenous, 10 mg/kg | reference: NCI-H1975 tumours over NCI-H1975/C797S tumours | AUC(0-t) ratio | ~2 fold
C[C@@H](Nc1cc(F)cc(F)c1)c1cc(C(=O)N(C)C)cc2c(=O)cc(N3CCOCC3)oc12 | measured: Pneumonitis | advanced solid tumour patients | oral, dose not given, dose finding |  | related serious adverse events | 0%
CN1C[C@H](COc2nccc3c(NCc4ccco4)cc(Cl)nc23)OC1=O |  | rabbit NZW female, isolated Langendorff heart | 10 µM, 15 min |  | QRS interval | 32 ms
O=C(COc1ccc(Cl)cc1)NC12CC(c3nnc([C@H]4C[C@@H](OC(F)(F)F)C4)o3)(C1)C2 | measured: Fatigue | human | oral, 200 mg once daily, 14 days |  | adverse event incidence | 28.6%
CCCCOc1ccc([C@H]2CC[C@H](CCC)CC2)c(F)c1F | measured: compound | human pregnant women, female fetuses, maternal serum | dose not given, paired maternal-cord samples, mean |  | concentration | 8.57 ng/mL
Cc1noc(CC2(NS(=O)(=O)c3cccc(Cl)c3O)CC2)n1 | colloidal aggregate formation, dynamic light scattering | 50 mM potassium phosphate buffer | 200 µM, pH 7.0, 1% DMSO | higher = more aggregation | DLS scattered light intensity | 604000 counts/s
Cn1c(C(F)(F)F)cc(=O)n(-c2cc(Oc3cccnc3OCC(=O)O)c(Cl)cc2F)c1=O |  | Crl:CD(SD) rats, male, plasma | oral diet, 800 ppm in diet, day 1, 90-day toxicity study |  | AUC(0-24 h) | 20900 ng·h/mL

SMILES | assay | test system | conditions | scale | quantity | value
CCN1/C(=C/C(C)=O)Sc2ccc(F)cc21 |  | cynomolgus monkey | oral, 10 mg/kg, 6 h post-dose | reference: pre-dose | systolic blood pressure change | 113 ± 10.1%
CCCCc1ccc(-c2ccc(C#N)cc2)cc1 | measured: compound | human pregnant women, male fetuses, maternal serum | dose not given, paired maternal-cord samples, mean |  | concentration | 0.19 ng/mL
CCC(C)n1ncn(-c2ccc(N3CCN(c4ccc(OCC5COC(Cn6cncn6)(c6ccc(Cl)cc6Cl)O5)cc4)CC3)cc2)c1=O (centres unmarked) |  | human, plasma | oral, dose not given, day 15 predose, geometric mean |  | trough plasma concentration | 134 ng/mL
CC[C@H](C)[C@H](NC(=O)[C@H](Cc1ccccc1)NC(=O)[C@H](CCC(=O)O)NC(=O)[C@H](CCCCNC(=O)COCCOCCNC(=O)COCCOCCNC(=O)CC[C@H](NC(=O)CCCCCCCCCCCCCCCCC(=O)O)C(=O)O)NC(=O)[C@H](C)NC(=O)[C@H](C)NC(=O)[C@H](CCC(N)=O)NC(=O)CNC(=O)[C@H](CCC(=O)O)NC(=O)[C@H](CC(C)C)NC(=O)[C@H](Cc1ccc(O)cc1)NC(=O)[C@H](CO)NC(=O)[C@H](CO)NC(=O)[C@@H](NC(=O)[C@H](CC(=O)O)NC(=O)[C@H](CO)NC(=O)[C@@H](NC(=O)[C@H](Cc1ccccc1)NC(=O)[C@@H](NC(=O)CNC(=O)[C@H](CCC(=O)O)NC(=O)C(C)(C)NC(=O)[C@@H](N)Cc1cnc[nH]1)[C@@H](C)O)[C@@H](C)O)C(C)C)C(=O)N[C@@H](C)C(=O)N[C@@H](Cc1c[nH]c2ccccc12)C(=O)N[C@@H](CC(C)C)C(=O)N[C@H](C(=O)N[C@@H](CCCNC(=N)N)C(=O)NCC(=O)N[C@@H](CCCNC(=N)N)C(=O)NCC(=O)O)C(C)C |  | type 2 diabetes patients | dose not given, hypoglycaemic clamp, nadir PG 5.5 mmol/L | reference: placebo | diastolic blood pressure difference | 1.2 mm Hg
O=C(c1nc2n(n1)[C@H](c1ccccc1)C[C@@H]2F)C1CC1 |  | human | 5 mg single dose, mean |  | fraction excreted in urine 0-72 h | 0.18%
C[Si](C)(C)O[Si](C)(C)C |  | 1-octanol/water | 2-27 µg/L in water, 28.3 °C |  | log KOW | 5.29
Cl.[2H]C([2H])([2H])CC(=O)c1cnc(NC(=O)C2CC2)cc1Nc1cccc(-c2ncn(C([2H])([2H])[2H])n2)c1OC |  | human, fed, multiple dose | oral, 40 mg twice daily, liquid formulation, day 7, geometric mean |  | Ctrough | 207 ng/mL
NC1(C(=O)N[C@@H](CCO)c2ccc(Cl)cc2)CCN(c2nc[nH]c3nccc2-3)CC1 | LC-MS/MS, non-compartmental | human patients, plasma | 160/400 mg cohort, cycle 2, median, together with: enzalutamide |  | Tmax | 2 h
C[C@@H](Cn1ccc(-c2ccc(C#N)c(Cl)c2)n1)NC(=O)c1cc([C@@H](C)O)[nH]n1 |  | healthy male human, plasma | intravenous infusion, 100 µg 14C-labelled, 15 min infusion, microtracer, geometric mean |  | AUC(0-tlast) | 3370 h·pg eq/mL
COc1cc(C(=O)N2CCC3(CC2)CC(=O)c2c(cnn2C(C)C)C3)cc(-c2ccc(C(=O)O)cc2)n1 | measured: HDL cholesterol | human, fasting serum | 1 mg every 12 h, day 13, adjusted geometric mean | reference: baseline and placebo | placebo-adjusted change from baseline | -6.1%
Cc1ccc(Sc2ccccc2N2CCNCC2)c(C)c1 | measured: eosinophil count increased | healthy adult men | oral, 10 mg daily, 12 days |  | participants with TEAE | 0%
O=C1CN(c2ccc(NS(=O)(=O)c3cccc(Cl)c3O)cn2)CCN1 | colloidal aggregate formation, dynamic light scattering | 50 mM potassium phosphate buffer | 200 µM, pH 7.0, 1% DMSO | higher = more aggregation | DLS scattered light intensity | 1.04e+08 counts/s
CC(C)c1nc(CN(C)C(=O)N[C@H](C(=O)N[C@@H](Cc2ccccc2)C[C@H](O)[C@H](Cc2ccccc2)NC(=O)OCc2cncs2)C(C)C)cs1 |  | Macaca nemestrina | subcutaneous, medium pathway, TLC-ART |  | lymph node sequestered fraction | 0.65
C[C@H]1C=C(Cc2ccccc2)C(=O)O1 | soil adsorption | tested soils | geometric mean |  | Freundlich coefficient KF | 1.8 mL/g
CCO[C@H]1CCN(Cc2c(OC)cc(C)c3[nH]ccc23)[C@H](c2ccc(C(=O)O)cc2)C1 |  | PNH patients, active haemolysis | oral, 50 mg, 4 weeks, treatment |  | incidence upper respiratory infection | 0%
CC(=O)Oc1ccccc1C(=O)O |  | male Hartley guinea pig, anaesthetized | intravenous, 3 mg/kg, baseline before infusion |  | QTc interval | 358 ± 0.5 ms
Cc1cccc(Cn2cc(CO)c3cnccc32)c1 |  | F344 rat, male, serum | oral, 100 mg/kg/day, 2 days |  | GGT | 0 U/L and 2 U/L
O=C1NCCc2nc(OCc3cccc(F)c3)ccc21 | modified Irwin test | Sprague-Dawley rat, male | oral, 100 mg/kg, 1 h | higher = stronger effect | corneal reflex loss score | 0
